Experimental data of several laboratories.
Protocols differ between the studies behind these lines. ± gives the spread as reported.

For Cc1ncsc1-c1ccc(CNC(=O)[C@@H]2C[C@@H](O)CN2C(=O)[C@@H](NC(=O)C2(F)CC2)C(C)(C)C)c(OCCOc2ccc(CN3CCN(c4cc(-c5ccccc5O)nnc4N)CC3)cc2)c1, “sites with decreased accessibility” read 43.6% (H1975 SMARCA4 wild type; ATAC-seq; 1 µM, 96 h).
O=C1N(Cc2ccccc2Cl)c2ccccc2C12NN=C(c1ccccc1)S2 (stereo not shown) gave a fold change of 3.25 (MDA-MB-468; gene expression array, refers to: MT1E mRNA; 10 µM, 12 h; baseline: untreated, down).
For CCC(=O)CCCCC[C@@H]1NC(=O)[C@H]2CCCCN2C(=O)[C@H]([C@@H](C)CC)NC(=O)[C@H](Cc2cn(OC)c3ccccc23)NC1=O, the viability was 40% (HBL-1; 0.1 µM, 120 h).
C/C=C(/C)C(=O)O[C@H]1C(C)=C2[C@H]([C@@H]1OC(=O)CCCCCCC)[C@@](C)(OC(C)=O)C[C@H](OC(=O)CCC)[C@@]1(O)[C@H]2OC(=O)[C@@]1(C)O: “normalized enrichment score” 1.32 (HEK-293T; RNA-seq GSEA, refers to: Hallmark estrogen response early; 500 nM, 6 h; direction not given).
For COc1ccc2c(c1)[nH]c1c(C)nccc12, the DNA methylation was 92.9% (DU-145; bisulfite pyrosequencing, refers to: RASSF1A promoter CpG site 21; 10 µM, 16 h).
The CC50 of CN1CCN(C2(CNC3CCN(c4cccc(-c5cc6cc(F)ccc6[nH]5)c4)CC3)CCC2)CC1 is reported as 6.06 µM (RXF 393).
COc1c(CCC[P+](c2ccccc2)(c2ccccc2)c2ccccc2)cc2c(c1OC)OCO2.[I-] has an LC50 of -4.15 log M (RXF 393; SRB).
With CC[C@H](C)[C@H](NC(=O)[C@H](Cc1c[nH]c2ccccc12)NC(=O)[C@H](CO)NC(=O)[C@H](C)NC(=O)[C@H](CC(C)C)NC(=O)[C@H](C)NC(=O)[C@H](CC(C)C)NC(=O)[C@H](C)NC(=O)[C@H](CCC(=O)O)NC(=O)[C@H](C)NC(=O)[C@H](CCC(=O)O)NC(=O)[C@H](C)NC(=O)[C@H](CCC(=O)O)NC(=O)[C@H](C)NC(=O)[C@H](CC(C)C)NC(=O)[C@H](C)NC(=O)[C@H](CC(C)C)NC(=O)[C@H](Cc1c[nH]c2ccccc12)NC(=O)[C@H](Cc1c[nH]c2ccccc12)NC(=O)CN)C(=O)N[C@@H](CCCCN)C(=O)N[C@@H](CCCNC(=N)N)C(=O)N[C@@H](CCCCN)C(=O)N[C@@H](CCCNC(=N)N)C(=O)N[C@@H](CCC(N)=O)C(=O)N[C@@H](CCC(N)=O)C(=O)N[C@@H](CS)C(N)=O the EC50 was 75 µM (human red blood cells; pH 5.5; baseline: Triton X-100).
Under “pathway fold enrichment”, Nc1ncnc2c1ncn2[C@@H]1O[C@@H]2COP(=O)(O)O[C@H]3[C@@H](O)[C@H](n4cnc5c(=O)[nH]cnc54)O[C@@H]3COP(=O)(O)O[C@H]2[C@H]1O is recorded as 10.4 (HFF-1; RNA sequencing, refers to: Reactome R-HSA-3560782; downregulated pathway; baseline: Zika virus alone).
The EC50 of CC[C@H](C)[C@H](NC(=O)CN)C(=O)NCC(=O)N[C@@H](C)C(=O)N[C@H](C(=O)N[C@@H](CC(C)C)C(=O)N[C@@H](CCCCN)C(=O)N[C@H](C(=O)N[C@@H](CC(C)C)C(=O)N[C@@H](C)C(=O)N[C@H](C(=O)NCC(=O)N[C@@H](CC(C)C)C(=O)N1CCC[C@H]1C(=O)N[C@H](C(=O)N[C@@H](CC(C)C)C(=O)N[C@H](C(=O)N[C@@H](CO)C(=O)N[C@@H](Cc1c[nH]c2ccccc12)C(=O)N[C@H](C(=O)N[C@@H](CS)C(N)=O)[C@@H](C)CC)[C@@H](C)CC)[C@@H](C)O)[C@@H](C)O)C(C)C)[C@@H](C)CC is reported as 30 µM (human red blood cells; pH 7.4; baseline: Triton X-100).
Nc1ncc(-c2nc(N3CCOCC3)nc(N3CCOCC3)n2)c(C(F)F)n1 has a GI50 of 0.13 µM (SK-N-FI; 72 h).
With COc1cc(CCC[P+](c2ccccc2)(c2ccccc2)c2ccccc2)c(OC)c2c1OCO2.[I-] the GI50 was -5.66 log M (HCC 2998; SRB).
With CC(=O)O[C@H]1C[C@H](O[C@H]2[C@@H](O)C[C@H](O[C@H]3[C@@H](O)C[C@H](O[C@H]4CC[C@@]5(C)[C@H](CC[C@@H]6[C@@H]5C[C@@H](O)[C@]5(C)[C@@H](C7=CC(=O)OC7)CC[C@]65O)C4)O[C@@H]3C)O[C@@H]2C)O[C@H](C)[C@H]1O[C@@H]1O[C@H](CO)[C@@H](O)[C@H](O)[C@H]1O the activity score was 13.4 (human iPSC-derived cardiomyocytes; MyBP-C/MYH ratio, plate-normalised SD score; concentration not given, primary screen; direction not given).
Cc1cc(C(C)(C)c2ccc(O)c(C)c2)ccc1O: “S phase cells” 9.2 ± 1.92% (HepG2 spheroids; Hoechst flow cytometry; 10 µM, 96 h).
For CCN(CC)c1ccc(C=NNC(=O)CSc2nc3ccccc3c(=O)n2Cc2ccc(S(N)(=O)=O)cc2)c(O)c1, the CC50 was > 100 µM (RXF 393; NCI five-dose screen).
CC(C)=CCC[C@]1(C)C=Cc2c(O)c3c(c(CC=C(C)C)c2O1)O[C@]12C(=C[C@@H]4C[C@H]1C(C)(C)O[C@@]2(C/C=C(/C)C(=O)O)C4=O)C3=O has an activity score of 9.3 (human iPSC-derived cardiomyocytes; MyBP-C/MYH ratio, plate-normalised SD score; concentration not given, primary screen; direction not given).

Repeated from above:
For CCN(CC)c1ccc(C=NNC(=O)CSc2nc3ccccc3c(=O)n2Cc2ccc(S(N)(=O)=O)cc2)c(O)c1, the CC50 was > 100 µM (RXF 393; NCI five-dose screen).
